Measured values of several laboratories.
Numbered parts are unrelated; each lists some results of a single study. Changes are numbered by the printed parent chain.

Block 1 — technique: protein-binding microarray; form: double-stranded DNA, one strand shown; medium: in vitro; concentration: 250 nM; setting: 60-bp whole probe; added: salmon DNA 0.4 mg/ml; relative to: random background probes; reading: higher = stronger binding; constant ends, left off below: GCCTAGCAC … GTCTTGATTCGCTTGACGCTGCTG
Target: Interferon regulatory factor 5, full length, phosphomimetic (IRF5, Homo sapiens, UniProt Q13568-2, residues 1-514, K96S/S451D/S453D/S456D/S462D)
| Sequence | log fluorescence |
| --- | --- |
| TGTGGGCGTAGGCCCGGAGCGTGCTAG | -0.901 z-score |
| TTAGGTATCGTACTGGGTTAGTGCTAG | 0.978 z-score |
| TTAGATACCGGGTATCGATTAGTGCTA | 3.56 z-score |
| TGTCCTGTCTACATGGGTGTGTGCTAG | -0.252 z-score |
| TCATTTATACCTTAGGTACTGTGCTAG | 0.0357 z-score |
| TTAGGTCGCCTTTTCCTTTAGTGCTAG | 0.121 z-score |
| TCCCACAGTCGAAAGTCTGCGTGCTAG | 1.42 z-score |
| TCACTGGTCACTCTCTGACTGTGCTAG | 0.00452 z-score |
| CACGGTTTCGGTCTCGGGACGTGCTAG | 9.23 z-score |
| GCCGATTTCAGTTCCGAGACGTGCTAG | 1.71 z-score |
| TTAGATTTCAGTCTCTATTAGTGCTAG | 2.21 z-score |
| TTTTTTTTCATCATTGCCTGGTGCTAG | 1.95 z-score |
| TTAGATTTTGGGTATCGATTAGTGCTA | 3.99 z-score |
| TTAATGTGTTCTTGGATTCGGTGCTAG | 0.295 z-score |
| TTAGATCTCAGTATCAATTAGTGCTAG | 1.34 z-score |
| AATTGTCTCTGTCCCTGTTTGTGCTAG | 0.57 z-score |
| TTAGGTTTCGGTTACGGTTAGTGCTAG | 11 z-score |
| GACGGTATCGGTTTCTGGACGTGCTAG | 6.61 z-score |
| TTAGATATCGGGACTGGATTGGTGCTA | 1.22 z-score |
| GACGGACTGGGTATCGTGACGTGCTAG | -0.225 z-score |
| TTAGAACTGAGAATGGATTAGTGCTAG | -0.0342 z-score |
| TTAAGCCCACTATCTAGCCCGTGCTAG | -0.217 z-score |

Block 2 — target: CCNE2, cyclin fold, Cln2 fusion (human); technique: yeast growth competition, sequencing; medium: yeast; setting: weak parent motif; relative to: not given; reading: higher = stronger binding
Starting sequence: RB1 docking peptide (human); PKPLKKLRFDIEG
| Substitution | normalised enrichment score |
| --- | --- |
| PKPLKKLRFDIYG [E12Y] | 0.509 |
| PKPLKKLRFDWEG [I11W] | 0.324 |
| PKKLKKLRFDIEG [P3K] | 0.913 |
| PKPFKKLRFDIEG [L4F] | 1.08 |
| PKPLKKIRFDIEG [L7I] | 0.61 |
| HKPLKKLRFDIEG [P1H] | 1.56 |
| PKPLKKLRFDIET [G13T] | 0.258 |
| MKPLKKLRFDIEG [P1M] | 0.0947 |
| PKPLKWLRFDIEG [K6W] | 0.154 |
| PKPLKKRRFDIEG [L7R] | 1.22 |
| PKPLKKSRFDIEG [L7S] | 0.73 |
| PKPLKKLRFDIQG [E12Q] | 0.471 |
| PKPLKALRFDIEG [K6A] | 0.631 |
| PKPLKKLRADIEG [F9A] | 1.27 |
| PKPLKKLRFDIPG [E12P] | 1.41 |
| PKPLKKLVFDIEG [R8V] | 0.356 |
| PKPLKKLRFDIER [G13R] | 1.02 |
| PKPLKKLRIDIEG [F9I] | 0.419 |
| PKPLKKLGFDIEG [R8G] | 0.0415 |
| PKRLKKLRFDIEG [P3R] | 0.901 |
| PKPLKKLRFNIEG [D10N] | 1.11 |
| PKPLKLLRFDIEG [K6L] | 0.173 |
| PKPLKKLRFDIMG [E12M] | 0.625 |
| PCPLKKLRFDIEG [K2C] | 0.757 |
| PKPLHKLRFDIEG [K5H] | 0.442 |

Block 3 — technique: RNA Bind-n-Seq; form: RNA; medium: in vitro; concentration: not given; relative to: input RNA pool; reading: higher = stronger binding
Target: RING finger protein unkempt homolog, zinc fingers 1-6, GST-SBP tag (UNK, Homo sapiens, UniProt Q9C0B0, residues 30-357)
Setting: RNA with constant flanks, human-mouse chimeric sites, ends assumed
Constant ends, left off below: GGGAGUUCUACAGUCCGACGAUC … CAACAGAGGAUUGAGCAUCA
Construct (chain): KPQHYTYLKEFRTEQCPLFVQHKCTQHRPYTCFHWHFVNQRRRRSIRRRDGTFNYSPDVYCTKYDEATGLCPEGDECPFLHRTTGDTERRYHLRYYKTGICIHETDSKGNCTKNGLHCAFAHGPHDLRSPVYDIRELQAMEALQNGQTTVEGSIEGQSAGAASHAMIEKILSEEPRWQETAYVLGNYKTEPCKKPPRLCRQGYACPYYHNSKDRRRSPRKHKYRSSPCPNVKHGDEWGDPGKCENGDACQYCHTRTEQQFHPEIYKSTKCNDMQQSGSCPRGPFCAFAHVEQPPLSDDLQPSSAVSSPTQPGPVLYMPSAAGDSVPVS
| Sequence | bound/input enrichment [ratio] |
| --- | --- |
| AACAGAUUUCUCAAGCACAUUCCAAGCGAGAAUGCUGGGGUGAUCAUAAUUACCCACGUGCCUUCUGACUGAGCUUUAAUGCUGUUCCAUGUUACAUCUUUCCUUCACUCCAGAAUUGUU | 0.132 |
| UCCCAAAUCCAGCAGCUAGAAGGAGCCUUGAGACAAAGCCUGGAAAUACAGGGAAGGCGAUAACAUUGUACAUUGGUUUACAUUUUUUCCCCCUGUGUUUUCUAGGGGAGGUCAUAGUGC | 0.525 |
| GUGUCCUUUCAACUUAAUAAAUCACUGAGGCAUCUCUACUGUUCUGUGAGCAUCAGGACUGUAGCGCUGUGUCACCACAGAUGAGAACAGAAGCAGCCUUUCUGUGGAGGGUGGGAAUGA | 0.308 |
| UUACCCGAGAACGAGGAUGAGCUGGAGAGCACCAACAGACGCUAUACCAAGAGGGACUGCAGCACUUUCCUCAGAACUAGCGAGACGGGCAUCGUGGACCAGGUCAUGGUCACUCUCAAC | 0.177 |
| AACAGAUUUCUCAAGCACAUUCCAAGCGAGAAUGCUGGGGUGAUCAUUGUUGCCCAUGUGCCUUCUGACUGAGCUUUUAAUUAAUUGCAUGUUACAUCUUUCCUUCACUCCAGAAUUGUU | 0.218 |
| UGGCGCCUGCGCUCCCCACUCGUGUUUUUAAGUGUAUUUUUAUAAGACAUGUGUAUUUACAAUUGAGCUUUUGUUACUAUAAUACUGAAUGCUACUGGAGAUUAUGAAAAAUGUUUCAAU | 0.284 |
| GUGACAGGUGUUAAGAUUUACCCUCAGCAAAGAAGUGCAGUAGUCACCAUAAUUCCAUCUGUGGUGAGUGCCAGUCAGAUUGUGGAGCUGGUCCCAGACCUCAGUUUAGACAUGGGAACU | 0.213 |
| AGUGUGCAGGAAUUCAUGACCUUCACGAGUCAACUGAUUGUGGAACGCUCGGGGAAAGGCAGCAGAGCUUCUGUCAAAGAACAAGAGUAUCUUUGCCAUGUCUACGUCCGGAGCGACAGU | 0.0898 |
| UGGCGCCUGCGCUCCCCACUCGUGUUUUUAAGUGUAUAAGAUGUAUAUACAUGUAUUUACAAUUGAGUUUUUGAUUAAUAAUGCUGAAAUGCUACUGGAGAUUAUGAAAAAUGUUUCAAU | 0.21 |
| UAAGUCCUGUGCCAGCACUUCGCUCAUAAAGUUUUAAAUUCAAGAAAAAUAGUGUUUGUUUCCUGAUUAUUGUAUCCAAUACUUUGCCUAGUAUGUAACUCAUGCUUACUGAUAAUAAAA | 1.29 |
| AUGGAACAUUUCGAUGCGUCACUCAGUACCUAUUUCAAGGCAUUGCUGGGCCCCCGAGAUACAAGAGUCAAAGGAUGGUUUCUUCUGGACAAUUACAUCCCUACGUUUGUCUGUUCUGUU | 0.1 |

Block 4 — technique: RNA Bind-n-Seq; form: RNA; medium: in vitro; concentration: 200 nM; setting: whole 134-nt RNA, ends assumed; added: 150 mM LiCl; relative to: input library; reading: higher = stronger binding; library: 7-deaza-guanosine replaces G
Target: Fragile X messenger ribonucleoprotein 1, C-terminal low-complexity region (Fmr1, Mus musculus, UniProt P35922)
Constant ends, left off below: GGGAGUUCUACAGUCCGACGAUC … UGGAAUUCUCGGGUGUCAAGG
| Sequence | log2 enrichment |
| --- | --- |
| AAGUCCUGUGCUACACAUCGUAUGUACCGAAUCGGGGAAAAGGAAAAGGAAAAGGGGAAAGUAUUAUGUUACGCCGUUCGGAUCUGCACU | 0.222 |
| GCAGGAAGUAAAAACAAAUGGAAAUGCUUCGGAUAGUGGCAGGGGUGGGGGUUGCUAAGGAAAGGGUGGGAUGGGAGUGGGUAAGGAGUU | 1.26 |
| UGGGAGGUGGAUUUUGUUUAUUUUUUUAGCUCAUUUCCAGGGGUGGGAAUUUUUUUUUAGUAUGUGUCAUGAAUAAAGUUGUUUUUGAAA | 0.756 |
| GUCCUGUGCUACACAUCGUAUGUACCGAAUCAAACCCCCAAAUUUAAACCCCCCCAAAAAAGUAUUAUGUUACGCCGUUCGGAUCUGCAC | 1.46 |
| CUCAAGUCCUGUGCUACACAUCGUAUGUACCGAAUCGGGCCGGGCCGGCCGGGGAAAGUAUUAUGUUACGCCGUUCGGAUCUGCACUUCC | 0.626 |
| CCUCAAGUCCUGUGCUACACAUCGUAUGUACCGAAUCGGGCGGGCGGCGGGGAAAGUAUUAUGUUACGCCGUUCGGAUCUGCACUUCCAG | 0.453 |
| UCACCUGUUUACAGUGAAUCAGACGUCCCAAUAGAUGUGGAGACGGUCACAUCAACGCCUAUGCCACUCUAUGACAAUCAGAAGGCACGC | -2.01 |
| UGGGAGGUGGAUUUUGUUUAUUUUUUUAGCUCAUUUGCAGGGGUGGGAAUUUUUUUUUAAUAUGUGUCAUGAAUAAAGUUGUUUUUGAAA | 1.45 |
| ACCAUGCAGGUGGGCAUCUUUGGGAAGUGGGGCAAGGGGGGGAUAUGGAGGGGGGUAACACUUUGGGAACAGGUGGUCCCAGGUCGUUUC | 1.25 |
| UAACUUUAGAGGAGGAUCUGGUGGAUAUGGCAGUGGACGUGGAUUUGGGGAUGGCUAUAAUGGGUAUGGAGGAGGACCUGGAGGUGGCAA | 0.461 |
| GUCCUGUGCUACACAUCGUAUGUACCGAAUCGGGGUUUUUUUGGGGUGGGGUUUGGGGAAAGUAUUAUGUUACGCCGUUCGGAUCUGCAC | -0.0373 |

Some of these lines once more (block 2):
| Substitution | normalised enrichment score |
| --- | --- |
| PKPLKKLRFDIYG [E12Y] | 0.509 |
| PKPLKKLRFDWEG [I11W] | 0.324 |
| PKKLKKLRFDIEG [P3K] | 0.913 |
| PKPFKKLRFDIEG [L4F] | 1.08 |
| PKPLKKIRFDIEG [L7I] | 0.61 |
| HKPLKKLRFDIEG [P1H] | 1.56 |
| PKPLKKLRFDIET [G13T] | 0.258 |
| MKPLKKLRFDIEG [P1M] | 0.0947 |
| PKPLKWLRFDIEG [K6W] | 0.154 |
| PKPLKKRRFDIEG [L7R] | 1.22 |
| PKPLKKSRFDIEG [L7S] | 0.73 |
